Published values collected from several papers.
Several values in a cell are separate wells, animals, samples, runs or records. ± gives the spread as reported.
CA1: Carbonic anhydrase 1 (CA1, Homo sapiens, UniProt P00915)
UniProt P00915, sequence (whole entry, looked up): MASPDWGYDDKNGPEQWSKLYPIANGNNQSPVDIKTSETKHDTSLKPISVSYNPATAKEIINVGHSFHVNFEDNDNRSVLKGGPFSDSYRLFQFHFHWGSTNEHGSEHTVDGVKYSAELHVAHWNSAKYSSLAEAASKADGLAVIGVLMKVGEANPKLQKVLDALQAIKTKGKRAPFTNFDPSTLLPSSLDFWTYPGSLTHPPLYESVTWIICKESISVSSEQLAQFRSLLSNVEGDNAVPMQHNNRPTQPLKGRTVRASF
PSMB6: Proteasome subunit beta type-6 (PSMB6, Homo sapiens, UniProt P28072)
UniProt P28072, sequence (whole entry, looked up): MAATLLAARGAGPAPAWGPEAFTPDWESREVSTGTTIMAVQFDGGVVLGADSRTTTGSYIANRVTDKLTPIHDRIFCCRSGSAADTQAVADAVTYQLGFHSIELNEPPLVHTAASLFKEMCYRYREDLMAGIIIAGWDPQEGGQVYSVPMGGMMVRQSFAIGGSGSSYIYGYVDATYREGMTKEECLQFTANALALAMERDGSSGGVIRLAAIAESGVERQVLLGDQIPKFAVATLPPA
Toll-like receptor 3: Toll-like receptor 3 (Homo sapiens, UniProt O15455)
UniProt O15455, sequence (whole entry, looked up): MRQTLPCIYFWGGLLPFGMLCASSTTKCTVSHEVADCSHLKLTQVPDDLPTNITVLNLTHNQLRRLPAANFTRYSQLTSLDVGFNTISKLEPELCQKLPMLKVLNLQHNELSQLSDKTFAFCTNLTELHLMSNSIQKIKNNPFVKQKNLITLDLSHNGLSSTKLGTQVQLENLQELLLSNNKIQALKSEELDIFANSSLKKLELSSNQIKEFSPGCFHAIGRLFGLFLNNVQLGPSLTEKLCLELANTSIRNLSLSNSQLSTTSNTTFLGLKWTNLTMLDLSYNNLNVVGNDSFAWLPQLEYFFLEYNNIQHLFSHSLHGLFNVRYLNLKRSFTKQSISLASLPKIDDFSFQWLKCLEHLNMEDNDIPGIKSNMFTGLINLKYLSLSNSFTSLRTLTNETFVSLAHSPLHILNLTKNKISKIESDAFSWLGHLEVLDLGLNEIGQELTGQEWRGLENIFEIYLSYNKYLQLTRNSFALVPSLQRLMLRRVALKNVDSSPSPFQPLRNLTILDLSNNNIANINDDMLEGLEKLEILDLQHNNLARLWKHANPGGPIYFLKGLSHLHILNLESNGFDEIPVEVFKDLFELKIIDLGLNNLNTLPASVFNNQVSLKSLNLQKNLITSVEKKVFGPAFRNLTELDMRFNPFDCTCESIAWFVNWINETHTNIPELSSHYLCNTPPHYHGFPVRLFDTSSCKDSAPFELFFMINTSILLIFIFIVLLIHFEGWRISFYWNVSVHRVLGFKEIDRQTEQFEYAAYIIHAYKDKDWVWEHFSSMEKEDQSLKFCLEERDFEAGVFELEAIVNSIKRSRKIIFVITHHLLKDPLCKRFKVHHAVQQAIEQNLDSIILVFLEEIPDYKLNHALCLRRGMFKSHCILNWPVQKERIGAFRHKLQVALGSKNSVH
ABCG2: Broad substrate specificity ATP-binding cassette transporter ABCG2 (ABCG2, Homo sapiens, UniProt Q9UNQ0)
UniProt Q9UNQ0, sequence (whole entry, looked up): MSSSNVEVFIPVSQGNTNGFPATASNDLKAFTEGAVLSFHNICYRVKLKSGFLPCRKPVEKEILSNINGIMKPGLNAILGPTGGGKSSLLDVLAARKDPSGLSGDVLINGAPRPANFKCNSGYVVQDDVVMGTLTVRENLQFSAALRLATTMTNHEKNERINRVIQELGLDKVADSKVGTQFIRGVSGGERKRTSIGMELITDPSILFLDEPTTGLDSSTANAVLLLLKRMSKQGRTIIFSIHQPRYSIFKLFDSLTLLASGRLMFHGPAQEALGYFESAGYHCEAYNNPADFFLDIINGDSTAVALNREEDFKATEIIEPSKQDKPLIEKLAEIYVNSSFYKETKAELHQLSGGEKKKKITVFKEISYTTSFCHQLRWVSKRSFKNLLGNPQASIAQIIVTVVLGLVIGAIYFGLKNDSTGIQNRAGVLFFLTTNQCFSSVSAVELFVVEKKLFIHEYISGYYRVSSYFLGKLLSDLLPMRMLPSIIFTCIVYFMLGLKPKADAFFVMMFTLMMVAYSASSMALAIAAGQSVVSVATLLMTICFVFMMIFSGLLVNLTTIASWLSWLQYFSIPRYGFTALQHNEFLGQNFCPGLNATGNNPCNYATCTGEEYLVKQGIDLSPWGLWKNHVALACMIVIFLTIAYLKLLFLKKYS
KCNH2: Voltage-gated inwardly rectifying potassium channel KCNH2 (KCNH2, Homo sapiens, UniProt Q12809)
UniProt Q12809, sequence (whole entry, looked up): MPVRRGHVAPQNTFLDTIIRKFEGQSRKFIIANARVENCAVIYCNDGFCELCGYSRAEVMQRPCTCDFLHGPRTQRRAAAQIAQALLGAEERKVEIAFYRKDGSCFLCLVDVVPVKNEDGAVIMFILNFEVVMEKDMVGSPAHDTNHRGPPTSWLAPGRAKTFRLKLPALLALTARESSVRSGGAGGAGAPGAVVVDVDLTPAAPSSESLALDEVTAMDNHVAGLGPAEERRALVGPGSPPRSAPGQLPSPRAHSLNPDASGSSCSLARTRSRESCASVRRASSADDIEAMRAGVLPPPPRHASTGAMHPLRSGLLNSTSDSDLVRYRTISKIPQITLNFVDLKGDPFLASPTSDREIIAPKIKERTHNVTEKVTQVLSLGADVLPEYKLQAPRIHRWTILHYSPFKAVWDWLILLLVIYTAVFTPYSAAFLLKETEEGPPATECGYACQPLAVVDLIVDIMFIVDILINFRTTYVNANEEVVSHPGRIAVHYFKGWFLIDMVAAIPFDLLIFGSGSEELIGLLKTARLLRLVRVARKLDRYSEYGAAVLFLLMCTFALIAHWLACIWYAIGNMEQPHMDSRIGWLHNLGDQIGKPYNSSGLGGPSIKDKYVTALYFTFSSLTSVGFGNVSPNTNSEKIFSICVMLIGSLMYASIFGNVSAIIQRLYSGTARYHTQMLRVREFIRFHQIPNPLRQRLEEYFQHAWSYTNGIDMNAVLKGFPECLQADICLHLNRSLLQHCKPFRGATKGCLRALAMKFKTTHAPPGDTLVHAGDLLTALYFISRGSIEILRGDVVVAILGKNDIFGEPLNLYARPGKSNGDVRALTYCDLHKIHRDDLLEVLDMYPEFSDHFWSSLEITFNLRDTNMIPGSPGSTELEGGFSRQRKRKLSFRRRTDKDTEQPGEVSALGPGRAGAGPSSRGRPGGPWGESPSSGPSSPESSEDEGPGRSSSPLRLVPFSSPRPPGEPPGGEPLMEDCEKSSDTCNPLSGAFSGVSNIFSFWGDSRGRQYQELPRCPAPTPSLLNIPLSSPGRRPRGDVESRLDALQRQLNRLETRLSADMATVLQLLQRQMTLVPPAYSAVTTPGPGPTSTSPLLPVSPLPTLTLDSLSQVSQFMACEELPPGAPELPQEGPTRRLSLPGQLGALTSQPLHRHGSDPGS
UniProt Q96P56, sequence (whole entry, looked up): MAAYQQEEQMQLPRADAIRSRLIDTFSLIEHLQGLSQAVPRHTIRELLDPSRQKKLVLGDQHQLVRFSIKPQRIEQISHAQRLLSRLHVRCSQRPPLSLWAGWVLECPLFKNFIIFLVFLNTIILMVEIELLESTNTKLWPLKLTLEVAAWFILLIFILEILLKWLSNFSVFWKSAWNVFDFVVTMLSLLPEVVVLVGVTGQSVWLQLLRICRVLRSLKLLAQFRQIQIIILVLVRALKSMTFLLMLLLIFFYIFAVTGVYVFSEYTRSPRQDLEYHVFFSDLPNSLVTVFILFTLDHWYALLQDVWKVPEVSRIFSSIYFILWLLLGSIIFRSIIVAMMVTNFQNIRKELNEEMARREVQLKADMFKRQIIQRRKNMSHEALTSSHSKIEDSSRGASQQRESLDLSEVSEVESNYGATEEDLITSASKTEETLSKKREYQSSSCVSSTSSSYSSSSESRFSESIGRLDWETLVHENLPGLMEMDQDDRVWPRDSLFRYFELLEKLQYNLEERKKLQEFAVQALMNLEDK
UniProt P41240, sequence (whole entry, looked up): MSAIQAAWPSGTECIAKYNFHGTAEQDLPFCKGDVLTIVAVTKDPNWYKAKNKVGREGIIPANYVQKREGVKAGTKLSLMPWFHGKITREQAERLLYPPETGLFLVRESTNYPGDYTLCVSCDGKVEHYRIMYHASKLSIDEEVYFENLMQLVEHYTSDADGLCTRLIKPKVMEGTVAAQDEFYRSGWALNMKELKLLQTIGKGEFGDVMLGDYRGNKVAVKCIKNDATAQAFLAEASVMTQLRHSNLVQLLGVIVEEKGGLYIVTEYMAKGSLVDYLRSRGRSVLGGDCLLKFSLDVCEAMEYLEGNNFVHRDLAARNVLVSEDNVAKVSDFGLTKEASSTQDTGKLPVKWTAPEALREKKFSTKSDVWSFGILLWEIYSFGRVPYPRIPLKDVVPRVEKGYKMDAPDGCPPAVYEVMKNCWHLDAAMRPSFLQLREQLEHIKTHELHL
UniProt P39877, sequence (whole entry, looked up): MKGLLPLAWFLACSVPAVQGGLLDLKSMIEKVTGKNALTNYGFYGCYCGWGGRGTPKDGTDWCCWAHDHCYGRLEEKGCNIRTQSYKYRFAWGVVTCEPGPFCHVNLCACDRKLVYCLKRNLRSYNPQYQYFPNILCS
UniProt Q86XQ3, sequence (whole entry, looked up): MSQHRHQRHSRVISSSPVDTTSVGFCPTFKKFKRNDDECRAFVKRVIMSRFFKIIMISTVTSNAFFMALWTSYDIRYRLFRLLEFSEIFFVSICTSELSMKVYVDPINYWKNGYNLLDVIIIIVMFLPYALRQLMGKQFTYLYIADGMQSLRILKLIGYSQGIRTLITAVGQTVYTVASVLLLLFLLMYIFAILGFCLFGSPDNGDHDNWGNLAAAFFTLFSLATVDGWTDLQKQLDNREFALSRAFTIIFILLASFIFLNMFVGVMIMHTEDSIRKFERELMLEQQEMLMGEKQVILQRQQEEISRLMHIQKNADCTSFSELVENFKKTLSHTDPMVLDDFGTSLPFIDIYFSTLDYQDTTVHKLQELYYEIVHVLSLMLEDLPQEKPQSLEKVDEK

Cc1cccc(C)c1NC(=S)N/N=C/c1ccc(N2CCC(O)CC2)cc1  IC50 (CA1; enzyme activity, inhibitor): 0.482 µM
CC[C@@H]1[C@H](F)C(=O)N[C@@H]1COc1nccc2cc(C(N)=O)c(OC)cc12  IC50 (MAP4K5 (Homo sapiens, UniProt Q9Y4K4); ATP probe binding, KiNativ profiling, measured: KHS1 Lys1 probe site; THP-1 cell lysate): > 5 µM
Cc1ccc(S(=O)(=O)n2cc(/C=N/NC(=S)NC3CCCCC3)c3ccccc32)cc1  IC50 (mushroom tyrosinase; enzyme activity, inhibitor; together with: L-DOPA substrate): 61.8 ± 1.47 µM
O=C(O)CCC(=O)Nc1ccccc1  Kd (Ubiquitin carboxyl-terminal hydrolase 20, ZnF-UBD domain (USP20, Homo sapiens, UniProt Q9Y2K6)): 817 µM
COc1ccc(C[C@H](NC(=O)[C@H](C)NC(=O)CN2CCOCC2)C(=O)N[C@@H](CC2CCC(C(F)(F)F)CC2)C(=O)[C@@]2(C)CO2)cc1 (some centres unmarked)  IC50 (PSMB6; competitive ABPP; Raji cell lysate): > 10 µM
OC1CCN(c2ccc(/C=N/NC(=S)NC3CCCCC3)cc2)CC1  IC50 (CA1; enzyme activity, inhibitor): 0.529 µM
Cc1c2ccncc2c(C)c2c1[nH]c1ccc(OCc3ccccc3)cc12  IC50 (Toll-like receptor 3; reporter gene, inhibitor; HEK-Blue hTLR3; together with: poly(I:C)): 11.5 ± 1.42 µM
Cc1nc(F)ccc1-c1cc(Cn2ccn(C)c2=N)cc(C(=O)NCc2ccc(Cl)c(Cl)c2)c1  IC50 (WD repeat-containing protein 5, MLL2 complex (WDR5, Homo sapiens, UniProt P61964); MLL2 methyltransferase activity, inhibitor; together with: H3 peptide substrate): 9.7 µM
COc1ccc2[nH]c3c(C)cc(-c4nc5ccccc5[nH]4)c(C)c3c2c1  IC50 (Toll-like receptor 3; reporter gene, inhibitor; HEK-Blue hTLR3; together with: poly(I:C)): 6.78 ± 1.55 µM
Cc1ccc(CNC(=S)N/N=C/c2ccc(N3CCC(O)CC3)cc2)cc1  IC50 (CA1; enzyme activity, inhibitor): 0.721 µM
O=C(CCc1ccc(O)cc1)c1c(O)cc(O)cc1O[C@@H]1O[C@H](CO)[C@@H](O)[C@H](O)[C@H]1O  IC50 (mushroom tyrosinase; enzyme activity, inhibitor; 10 min, together with: L-tyrosine): > 400 µg/mL
Cc1nc(F)ccc1-c1cc(C(=O)NCc2ccc(Cl)c(Cl)c2)ccc1Cn1ccn(C)c1=N  IC50 (WD repeat-containing protein 5, MLL1 complex (WDR5, Homo sapiens, UniProt P61964); MLL1 methyltransferase activity, inhibitor; together with: H3 peptide substrate): > 3 µM
CCn1c(-c2nc3cc(C(=O)N4CCC[C@@H](N)C4)cc(OC)c3n2C)cc2cccnc21  IC50 (HTR1B (Homo sapiens, UniProt P28222); antagonist, GTPγS binding): > 31.6 µM
Cc1cnc(-c2ccc(-c3ccc(NC(=O)Nc4c(F)cc(F)cc4F)cc3F)c3c2C(=O)NC3)[nH]1  IC50 (KIT (Homo sapiens, UniProt P10721); enzyme activity, inhibitor, mobility shift; together with: ATP 1 mM): 0.0908 µM
COc1ccc2c3c([nH]c2c1)[C@H](CC(C)C)N1C(=O)[C@H](CC(=O)NCc2ccccc2)NC(=O)[C@@H]1C3  IC50 (ABCG2; inhibitor, measured: protoporphyrin IX; A549; 2 h, together with: 1 mM ALA): 0.323 µM and 0.21 µM and 0.213 µM
CC(C)C[C@H](NC(=O)[C@H](Cc1ccccc1)N=[N+]=[N-])C(=O)N[C@@H](CC(C)(C)F)C(=O)N[C@H](/C=C/S(C)(=O)=O)Cc1ccc(CN)cc1  IC50 (PSMB6; competitive ABPP; Raji cell lysate): > 10 µM
N=C(N)NC(=O)c1nc(Cl)c(N2CCCCCC2)nc1N  IC50 (CatSper channel complex (Homo sapiens, UniProt Q7RTX7+Q86XQ3+Q8NEC5+Q96P56); calcium influx, inhibitor, FLIPR; human sperm; together with: high pH, high potassium): 9.6 µM
COc1ccc(C(=O)Nc2ccc(-c3nc4ccccc4[nH]3)cc2)c(OC)c1  IC50 (Tyrosine-protein kinase SYK, with FCER1G (SYK, Homo sapiens, UniProt P43405); inhibitor, TR-FRET; counter screen): > 100 µM
Cc1ccc(S(=O)(=O)n2cc(/C=N/NC(=S)Nc3cccc([N+](=O)[O-])c3)c3ccccc32)cc1  IC50 (mushroom tyrosinase; enzyme activity, inhibitor; together with: L-DOPA substrate): 6.4 ± 0.21 µM
COc1cc(C)c2c(c1C=O)Oc1c(c(C)c(O)c3c1C(O)OC3=O)OC2=O (centres unmarked)  IC50 (Replicase polyprotein 1ab, 3C-like proteinase (Feline coronavirus, UniProt Q98VG9); protease activity, inhibitor; together with: 6 µM fluorogenic substrate): 29.4 ± 4.66 µM
[Fe+2].c1ccc(CN(Cc2ccccn2)C(c2ccccn2)c2ccccn2)nc1  IC50 (Proteasome subunit beta type-6, caspase-like site (PSMB6, Homo sapiens, UniProt P28072); caspase-like activity, inhibitor, purified 20S proteasome; pH 7.4, together with: 20 µM Z-LLE-AMC): > 1000 µM
CC(C)C[C@H](NC(=O)[C@H](Cc1ccccc1)N=[N+]=[N-])C(=O)N[C@@H](CC(F)(F)F)C(=O)N[C@H](/C=C/S(C)(=O)=O)Cc1ccc(CN)cc1  IC50 (PSMB6; competitive ABPP; Raji cell lysate): > 10 µM
C[C@H](O)[C@H](O)[C@H]1CNc2nc(N)[nH]c(=O)c2N1  IC50 (ABCG2; inhibitor; estimated): 778 µM
C=CC(=O)Nc1cc(Nc2nccc(-c3cn(C)c4ccccc34)n2)c(OC)cc1N(C)CCN(C)C  IC50 (ABCG2; transport): 2 µM
Cc1ccc(S(=O)(=O)n2cc(/C=N/NC(=S)Nc3ccccc3F)c3ccccc32)cc1  IC50 (mushroom tyrosinase; enzyme activity, inhibitor; together with: L-DOPA substrate): 10.5 ± 0.19 µM
O=C1CC[C@H](N2Cc3cc(N4CCN(CC5CCN(c6ccc([C@@H]7c8ccc(O)cc8CC[C@@H]7c7ccccc7)cc6)CC5)CC4)ccc3C2=O)C(=O)N1  IC50 (ABCG2; inhibitor): 4.9 µM
CC(C)C[C@H](NC(=O)c1ccc(-c2ccccc2)nc1)C(=O)N[C@@H](CC(C)C)C(=O)N[C@H](/C=C/S(C)(=O)=O)Cc1ccc(CN)cc1  IC50 (PSMB6; competitive ABPP; Raji cell lysate): > 10 µM
O=P(O)(O)O[C@@H]1[C@H](O)[C@H](O)[C@@H](OP(=O)(O)O)[C@H](OP(=O)(O)O)[C@H]1O  IC50 (Inositol-tetrakisphosphate 1-kinase (Homo sapiens, UniProt Q13572); phosphatase activity, inhibitor, luciferase-coupled): 0.23 ± 0.05 µM
CCS(=O)(=O)N1CCN(c2ccc(Nc3ncc(C(N)=O)c(NC4CC4)n3)cc2)CC1  IC50 (SYK (Homo sapiens, UniProt P43405, S550Y); kinase activity, inhibitor): 0.056 ± 0.013 µM
C#Cc1ccc2ccccc2c1  IC50 (Cytochrome P450 2A6 (CYP2A6, Homo sapiens, UniProt P11509); coumarin 7-hydroxylation; 20 min, pH 7.4, 37 °C, together with: coumarin 10 µM): 8.8 µM
O=c1ccn([C@@H]2O[C@H](COP(=O)(O)OP(=O)(O)OP(=O)(O)O)[C@@H](O)[C@H]2O)c(=O)[nH]1  IC50 (dGTP triphosphohydrolase (Leeuwenhoekiella blandensis, UniProt A3XHN1); dGTPase activity, inhibitor, enzyme-coupled; together with: 1 mM dGTP): ~3800 µM
CN1CCN(c2cnc3c(cc(C(=O)NCc4ccc(Cl)cc4)c(=O)n3CC(=O)N3CC(C)(F)C3)n2)C1=O  IC50 (KCNH2; ion current, automated patch clamp): 33.2 µM
CC(C)(/C=C(\C#N)C(=O)N1CCC[C@@H](n2nc(-c3ccc(Oc4ccccc4)cc3F)c3c(N)ncnc32)C1)N1CCN(C2COC2)CC1  IC50 (CSK (Homo sapiens, UniProt P41240)): 0.186 µM
COc1ccc(F)cc1C(=O)NCc1ccc(-c2nn([C@@H](C)C(F)(F)F)c(N)c2C(N)=O)cc1  IC50 (YES1 (Homo sapiens, UniProt P07947); target engagement, NanoBRET tracer displacement; HEK293; above top tested dose): > 5 µM
Cc1ccc(S(=O)(=O)n2cc(/C=N/NC(=S)Nc3ccccc3C)c3ccccc32)cc1  IC50 (mushroom tyrosinase; enzyme activity, inhibitor; together with: L-DOPA substrate): 24.3 ± 0.51 µM
Cc1cc(N2CCc3c(c(C)nn3CC34CCC(NC(=O)[C@@H]5COCCN5)(CC3)CC4)C2)c2cnn(C)c2n1  IC50 (TLR7 (Homo sapiens, UniProt Q9NYK1); IFNα release, antagonist; healthy volunteers, whole blood; together with: ssRNA): 0.003 ± 0.001 µM
Cc1ncc(C(=O)N[C@@H](CC(C)C)C(=O)N[C@@H](CCC2CCCCC2)C(=O)N[C@H](/C=C/S(C)(=O)=O)Cc2ccc(CN)cc2)s1  IC50 (PSMB6; competitive ABPP; Raji cell lysate): > 10 µM
CN1CCN(c2ccc(Nc3ncc4cc(C#N)c(=O)n(C5CCCC5)c4n3)cc2)CC1  IC50 (FLT1 (Homo sapiens, UniProt P17948)): 0.121 µM
Cn1ncc2c(Cl)c(C(=O)NCc3ccccc3)cnc21  IC50 (MDH2 (Sus scrofa, UniProt P00346); enzyme activity, reporter counter-screen; native enzyme): > 63 µM
CC1(F)CN(C(=O)Cn2c(=O)c(C(=O)NCc3ccc(Cl)cc3)cc3nc(N4CCN(CC(=O)O)C4=O)cnc32)C1  IC50 (KCNH2; ion current, automated patch clamp): 26.4 µM
O=c1nc(SCc2cc(F)cc(C(F)(F)F)c2)nc(SCc2ccc3sccc3c2)[nH]1  IC50 (TOP2A (Homo sapiens, UniProt P11388); ATPase activity, inhibitor, competitive ATPase; together with: 0.5 mM ATP): 9.4 µM
COc1ccc(C[C@H](NC(=O)[C@H](C)NC(=O)CN2CCOCC2)C(=O)N[C@@H](CC2CCC3CCCCC3C2)C(=O)[C@@]2(C)CO2)cc1 (some centres unmarked)  IC50 (PSMB6; competitive ABPP; Raji cell lysate): > 10 µM
C#CCC(N)C(=O)O (racemic)  IC50 (cystathionine gamma-lyase (Toxoplasma gondii, UniProt A0A125YN40); cysteine formation, inhibitor, HPLC): 20 ± 4 µM
COc1cc2c(cc1OC)C1CC(=O)C(CC(C)C)CN1CC2 (centres unmarked)  IC50 (SLC18A2 (Homo sapiens, UniProt Q05940, L37F); FFN206 uptake, inhibitor, fluorescence imaging; L37F mutant, together with: FFN206 5 µM): 0.0824 µM
COc1cc(N2CCC(N3CCN(C)CC3)CC2)ccc1Nc1ncc(Cl)c(Nc2ccccc2P(C)(C)=O)n1  IC50 (ABCG2; transport, inhibitor; C2BBe1; together with: cladribine substrate): 10.1 µM
Cc1sc2ncn(CC(=O)O)c(=O)c2c1C  Kd (Ubiquitin carboxyl-terminal hydrolase 49, ZnF-UBD domain (USP49, Homo sapiens, UniProt Q70CQ1)): > 1000 µM
COc1cc(/C=N/n2c(C)nc3ccc(C)cc3c2=O)cc([N+](=O)[O-])c1O  IC50 (PLA2G5 (Homo sapiens, UniProt P39877); enzyme activity, inhibitor, colorimetric): 65.4 ± 1.71 µM

A few entries again:
COc1ccc2[nH]c3c(C)cc(-c4nc5ccccc5[nH]4)c(C)c3c2c1  IC50 (Toll-like receptor 3; reporter gene, inhibitor; HEK-Blue hTLR3; together with: poly(I:C)): 6.78 ± 1.55 µM
Cc1ccc(CNC(=S)N/N=C/c2ccc(N3CCC(O)CC3)cc2)cc1  IC50 (CA1; enzyme activity, inhibitor): 0.721 µM
O=C(CCc1ccc(O)cc1)c1c(O)cc(O)cc1O[C@@H]1O[C@H](CO)[C@@H](O)[C@H](O)[C@H]1O  IC50 (mushroom tyrosinase; enzyme activity, inhibitor; 10 min, together with: L-tyrosine): > 400 µg/mL
Cc1nc(F)ccc1-c1cc(C(=O)NCc2ccc(Cl)c(Cl)c2)ccc1Cn1ccn(C)c1=N  IC50 (WD repeat-containing protein 5, MLL1 complex (WDR5, Homo sapiens, UniProt P61964); MLL1 methyltransferase activity, inhibitor; together with: H3 peptide substrate): > 3 µM
